Measured values pooled from the literature.
Each numbered part is a random draw from the data of one study; scales do not carry over between parts. Changes are numbered by the printed parent chain.

Series 1
Target: Myc proto-oncogene protein, bHLH-zipper, MAX partner unstated (MYC, Homo sapiens, UniProt P01106, residues 368-449)
Sequence of UniProt P01106 (368-449, looked up): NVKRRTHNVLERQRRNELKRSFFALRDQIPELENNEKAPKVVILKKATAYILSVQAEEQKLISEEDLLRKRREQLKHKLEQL
Method: protein-binding microarray
Molecule type: double-stranded DNA, one strand shown
Sample: in vitro
Concentration: not given
Setting: k-mer, scored over probes, only values ≥0.25
Reading: higher = stronger binding
Measurement: E-score
CAACACGC: 0.399
CCACGAGC: 0.373
CATGTTTC: 0.3
ACATGCCT: 0.345
ACGCGCCG: 0.294
GTGGGACA: 0.334
GCACGAGC: 0.319
CTGTGCGC: 0.282
AGACACAC: 0.279
CCACACCC: 0.33
ACGAGCAC: 0.291
ACCACGTC: 0.333
CGTGTCCC: 0.344
GGGCGTGA: 0.251
GGCGCACA: 0.322
ACGTTGCG: 0.259
GCACGCCA: 0.35

Series 2
Target: CCNB3, cyclin fold, Cln2 fusion (human)
Method: yeast growth competition, sequencing
Sample: yeast
Setting: weak parent motif
Relative to: not given
Reading: higher = stronger binding
Measurement: normalised enrichment score
Parent: MICAL3 docking peptide (human); LQLRRQLSFSEDS
F9D: -0.31
E11V: 0.165
F9T: 0.102
Q2Y: 0.166
Q2A: -0.0465
Q2M: 0.108
Q6G: 0.00798
Q6A: 0.126
E11P: 0.625
Q2V: 0.537
R5T: -0.0565
Q2D: 0.185
Q6K: 0.869
R4Y: 0.0101
R4A: 0.392
Q6E: 0.0657
L3G: 0.367
F9C: 0.0378
R4C: -0.0162
Q2R: 0.0549
D12S: 0.0343
S8Y: 0.0923
F9N: -0.278
S10I: 0.271
S10V: -0.0872

Series 3
Target: RNA binding protein fox-1 homolog 2, RRM domain, GST-SBP tag (RBFOX2, Homo sapiens, UniProt O43251-10, residues 100-194)
Method: RNA Bind-n-Seq
Molecule type: RNA
Sample: in vitro
Concentration: 365 nM
Setting: natural RNA segment, single round, ends assumed
Relative to: no-protein control
Reading: higher = stronger binding
Measurement: RBNS enrichment (R)
Shared flanks, not repeated: GGGAGUUCUACAGUCCGACGAUC … UGGAAUUCUCGGGUGCCAA
Target sequence (chain): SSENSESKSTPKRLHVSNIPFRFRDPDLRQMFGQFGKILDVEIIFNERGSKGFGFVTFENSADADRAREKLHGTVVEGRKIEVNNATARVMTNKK
UUAUUAAAAAGAAAAAAGCCAAAAAGAAAAAAAAAAAAAGCAAGCCACCUCUCUCUUUCUUUUCUUGCUCUCUUUUUCUUUCUCUCUCUCUCAAGUUUGUGCAGGGAGAU: 1.07
GAGCUACUCAUGACUGAAGGGAAACUGCAGCUGGGAAGAGGAGCCUGUUUUUGUGAGAGACUUUUGCCUUCGUAAUGUUAACCGUUUCAGGACCACGUUUAUAGCUUCAG: 0.559
CCCUGUAUCCUAGUGAUAACUCCAGGUCUGUGAACCAUUCAAACAGCAUUCAUUUUGAGAAAAGCAACUUUAGUUUCAAGGAUAAUUUUAAGCUUCAAAAUUAAUCAUUU: 1.62
UCCAUCUGAGCAAACAGGUAAUUUAAGCAUUUAUCUCCCCUUUCACUUUCAAAAAGAAUCAUCAUUGAUUAUUCUUGUUUCACAUCUGAGGAUGAAGGCUAACGGCUGUG: 0.566
GGAAGCCCAUGAGUAGUAAUUAGACUGUAUUCUUAAGUGUAGACCUUUGCUAAUGUCAGAGACAGUUCCUAACCUAGUAACAGUUCACUUUGCGUCGUUUCUGUACUUCU: 0.45
UGUCGUAAUAAAAGCCUCAGUGCAGCUUCUUCCUGCAGUUCACAUCUUGAUGCUAGGAUGCUCCUGGUACUAACUAAACAUUGGCAGUUCACAUCCCAGACACCAGGGGU: 0.296
CAAAGGUCCUAAGAGGAGACAGCUGUGAAGUUGGGCGUGCUCUGUGGUACCAGCUGUGACUUUUCUAUUUCUCCUAGUUUUAGGUUGUUCAUGAAACUAGAAAUGUCAUC: 0.433
AACAAGCCACCAACCACUGACUGCAAAACUGCCUGAUGCAGUUGGGUUCCUCCUGGUUUUCUUUUGUUACAACCACCCUUGCCUGUUUACAUUAAUUGCAAGGAGCAUAA: 1.27
UGACUGUCCUUACGUCCUCUCUGUUUAGAGUCUUAUUUAUUCUGCCCUUUUAACCAGUGCUGUGAUGGAUGAAGGCCAAUCUUGUUUCCUUUCAUCUAGUACCUGGACCA: 0.411
GUGAGAUGGGUGUCUGGGAGUGGUGCCAUGGAAGUGGCGAUUCUGCUUCUUAUAAAUACCUCCAAAGUGCCACCUGUUUCAACAGAAACGCUCAGAUUGCUAGCUAGGCA: 0.525
AGAAAGUGCUCAUUUAUAAUGUGUAUUCUGUGCAGCUGUUCUCAGACAAGACCGGAUCUUGUCAUCUUACCUUUUGCUUUACAAAAAAGGCCUGUUGAAGUCAAUGCUGU: 0.292
ACGCUGAACUGGUGUAGCAUGUGGUGCAGCAUUCAGUGAAACUGGCUGGAGGAAAUAGGCUUGUUUCCAGAGUUGUCCUUAUACAAAAUGUAUAAAAAGCAGUUUCUGGU: 13.9

Series 4
Target: Interferon regulatory factor 5, full length, phosphomimetic (IRF5, Homo sapiens, UniProt Q13568-2, residues 1-514, K96S/S451D/S453D/S456D/S462D)
Method: protein-binding microarray
Molecule type: double-stranded DNA, one strand shown
Sample: in vitro
Concentration: 250 nM
Setting: 60-bp whole probe
With: salmon DNA 0.4 mg/ml
Relative to: random background probes
Reading: higher = stronger binding
Measurement: log fluorescence
Shared flanks, not repeated: GCCTAGCAC … GTCTTGATTCGCTTGACGCTGCTG
TTAGGAGTGGGTTTCGGTTAGTGCTAG: 7.99 z-score
GTCGATCTCAGACTGGAGACGTGCTAG: -0.313 z-score
TTAGGTTTCGGTGTCGGTTAGTGCTAG: 9.47 z-score
TCAGCTTCCTCTTTACTACTGTGCTAG: 0.602 z-score
ATATATGTGTATATATAATAGTGCTAG: 0.54 z-score
GACGGTCTCCTACTGCTGCCGTGCTAG: -0.699 z-score
TCATTTTTCTACTTCTCACTGTGCTAG: 1.54 z-score
GACGAACTGAGTATCGATACGTGCTAG: 6.77 z-score
TTAGGACTGGGACTGGGTTCGTGCTAG: -0.62 z-score
TTAGATATCAGTCTCGACTAGTGCTAG: 1.34 z-score
GTGACTCAGCACTTTGGCATGGTGCTA: -0.696 z-score
TCAATTCTCATTTCCAAACTGTGCTAG: 1.14 z-score
AAGACTTTGCTCTGTGCGTAGGTGCTA: -0.387 z-score
TGGGATTTTGTCCTCCCCTCGTGCTAG: -0.429 z-score
AACGATATCGGGTTTCGAGACGTGCTA: 4.03 z-score
GTAGATATCAGTCTCGATTAGTGCTAG: 1.99 z-score
TTAGAACTGCGGTTTCGATTAGTGCTA: 6.87 z-score
TCAAAAATGCCCTTTTGGACTGTGCTA: 0.215 z-score
GCCGGTTCCGGTTTCGGGACGTGCTAG: 5.14 z-score
GGCTGTTTGGCCCTGAACCTGTGCTAG: -0.56 z-score
TGCCCTCTCCATACTTCCCAGTGCTAG: 0.134 z-score
CCTAGTTGTACTTTCTATCTGTGCTAG: 3.03 z-score
TTTTTTCTACTTCTCTTTTGGTGCTAG: 3.11 z-score
TCATTTTTAGCTTGCAAACTGTGCTAG: 0.466 z-score
TCAGGTTTCACTTTAAAACTGTGCTAG: 5.8 z-score

Series 5
Target: Histone acetyltransferase KAT6A, winged helix 1, GST fusion (KAT6A, Homo sapiens, UniProt Q92794, residues 1-85)
Method: protein binding microarray
Molecule type: double-stranded DNA, one strand shown
Sample: in vitro
Concentration: not given
Setting: 8-mer, flanks averaged, mean of 2 arrays, mostly near background
Relative to: not given
Reading: higher = stronger binding
Measurement: E-score
Residues (chain): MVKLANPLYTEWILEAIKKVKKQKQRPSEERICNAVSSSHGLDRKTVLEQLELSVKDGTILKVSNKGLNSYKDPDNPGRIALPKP
GGTGCAGA: -0.131
GAGGGAAC: -0.0278
ACGCTAAT: 0.192
ACAATAGC: -0.0362
AGTACAAC: -0.155
AGTCAAAG: -0.058
AAGGATGT: -0.206
ATGCTACC: 0.0187
GCAGAGAC: -0.0657
CAGGGTCG: 0.00271
ATAGCCAC: -0.102
CATATATG: -0.245
AGGTCCTG: -0.179
CACGCAAA: 0.0774
TTAAGAAA: -0.171
ATGCCTTA: -0.178
AGGCCCCT: -0.0772
AAGTAACC: 0.00626
GACCCCGC: 0.398
ATCCCGGA: -0.072
GATGATGC: -0.0426
ACTCAGAG: -0.0591
TGAGTCAA: -0.16
ATTCAATC: -0.145
CGTCACGA: 0.0944

Repeated from above (series 1):
ACGAGCAC: 0.291
CAACACGC: 0.399
ACGTTGCG: 0.259
ACATGCCT: 0.345
CGTGTCCC: 0.344
ACCACGTC: 0.333
CCACACCC: 0.33
GTGGGACA: 0.334
CCACGAGC: 0.373
GCACGAGC: 0.319
GCACGCCA: 0.35
CATGTTTC: 0.3
